Measurements pooled from the literature.
Numbered parts are unrelated; each lists some results of a single study. Changes are numbered by the printed parent chain.

Block 1
Target: Histone acetyltransferase KAT6A, winged helix 2, GST fusion (KAT6A, Homo sapiens, UniProt Q92794, residues 85-181)
Technique: protein binding microarray
Form: double-stranded DNA, one strand shown
Matrix: in vitro
Tested at: not given
Setting: 8-mer, flanks averaged, mean of 2 arrays, mostly near background
Relative to: not given
Direction: higher = stronger binding
Quantity: E-score
Residues (chain): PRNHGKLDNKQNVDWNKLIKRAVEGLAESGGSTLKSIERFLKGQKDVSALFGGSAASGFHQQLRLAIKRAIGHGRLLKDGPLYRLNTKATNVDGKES
TACAGGTA: -0.112
GCATTCTA: 0.0911
AGTGTCTC: -0.06
GATACGCA: 0.127
GCGTCTCC: 0.093
CACCATTC: -0.0432
GTTTGGTA: 0.00314
ATCCCGCC: 0.159
CCTGGGAG: -0.0356
CGAAGTAA: 0.0697
ATCCTGGA: 0.0101
ACAGGAAT: -0.0653
CGTCCTGA: -0.0832
CTGCGAGC: 0.146
CCCTATAG: -0.218
CGGTCCCA: 0.118
ATCTTGAA: -0.0605
CCTTCTTA: 0.112
ATGATCAG: -0.0112
CTCCGTCA: 0.0645
TCTATAGA: -0.154
AATAGATC: -0.0325
ATACCCGC: 0.108
CATGGGCA: -0.0285
GGGGATCA: -0.141

Block 2
Target: CCNE2, cyclin fold, Cln2 fusion (human)
Technique: yeast growth competition, sequencing
Matrix: yeast
Setting: strong parent motif
Relative to: not given
Direction: higher = stronger binding
Quantity: normalised enrichment score
Starting sequence: TICRR docking peptide (human); TKVRRNLFNQELL; partner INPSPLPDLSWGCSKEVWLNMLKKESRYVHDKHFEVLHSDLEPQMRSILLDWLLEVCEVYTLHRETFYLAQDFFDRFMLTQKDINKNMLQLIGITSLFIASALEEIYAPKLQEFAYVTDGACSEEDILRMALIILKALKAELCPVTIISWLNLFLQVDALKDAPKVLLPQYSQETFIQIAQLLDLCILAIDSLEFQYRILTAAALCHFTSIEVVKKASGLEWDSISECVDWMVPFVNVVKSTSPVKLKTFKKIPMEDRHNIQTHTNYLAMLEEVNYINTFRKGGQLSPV
R5K F8L: 0.349
R5A L7A: 0.0409
K2A: 2.81
N6A: 1.73
R5K: 0.944
R4A: 0.63
L13A: 2.06
F8A: -0.5
R5A: 0.517
Q10A: 1.07

Block 3
Target: RNA binding protein fox-1 homolog 2, RRM domain, GST-SBP tag (RBFOX2, Homo sapiens, UniProt O43251-10, residues 100-194)
Technique: RNA Bind-n-Seq
Form: RNA
Matrix: in vitro
Tested at: 365 nM
Setting: natural RNA segment, single round, ends assumed
Relative to: no-protein control
Direction: higher = stronger binding
Quantity: RBNS enrichment (R)
Construct (chain): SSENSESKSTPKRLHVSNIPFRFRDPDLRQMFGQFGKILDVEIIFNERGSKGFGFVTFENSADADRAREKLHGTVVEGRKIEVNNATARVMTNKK
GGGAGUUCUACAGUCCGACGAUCACACUUGCCCCGCCCUCCCACACCUGCUUGGGAGGCCAGAGAGGCCAGACAAGCCGAGAGCCCCUUCUGUUGUGGGCAGCCUGGGUUUGCAGGCCUGCACAGGCUGGGGAUGGAAUUCUCGGGUGCCAA: 4.62
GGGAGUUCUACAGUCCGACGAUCACCUUUUCUAGGAGGCAUUGCAGGGUUUCAAUACACAGGACAUGUUCUAGUUACAGAAGCCUUGCUCUGCUGUCAACAAUUGGGAAAUGCUCAUUUUUUCAUGUUUUGUGUGGAAUUCUCGGGUGCCAA: 0.269
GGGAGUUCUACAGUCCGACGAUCUUCAGUUAGUCUUUUAUUUAUUUAGAAUAAAAAAUAGUUUGAUAACCUACCAGAGUUAGUGCUUCUUUAAAAACACUCCUUGGAAAGAUGGGGACUGUCCCUUAGGAAAGUGGAAUUCUCGGGUGCCAA: 0.489
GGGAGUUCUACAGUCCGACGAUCGGGUAAGAAUUUCCGCUCCUACUUGCUAGAUCUGCGAAAUACUAGCACUCCUUUCAAGGGUGUUGGCAAGGCCCUCAUUGAUACUCUCCUGGAUGGAUAUGAGACAGCCCUGGAAUUCUCGGGUGCCAA: 0.217
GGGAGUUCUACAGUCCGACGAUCGCCCGGAAACAAAACUCAUGCUGUGCCAUCAUGUGUGCAGCCUGCCAGAGGCCCAAUGCUGGAAUGGCACCAUCAUUCACAUCAGAACUGCAGCCCCUGGAAAAGAAGAGUGGAAUUCUCGGGUGCCAA: 0.598
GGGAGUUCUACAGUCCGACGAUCCAUCUUUAUUUUGUAAUGUGUUAAAUAAGCAUUAUAUGCUGGUAGAAUCUAGUUUAAUUGUUUCAGGUAGAAAGUAUUCUUUUGAGUUUCCAUUUUGAAUGUGUUUGGACUGGAAUUCUCGGGUGCCAA: 3.57
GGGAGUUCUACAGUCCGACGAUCGCCUAGAUCCCACUGGUAGGCCUCGUGGCUGGCAGCAGUGCUCUGGGAAUAAACAGCUGCCCUAGCCCCAGAGGGAUCCCUGCACCCAGGAGGCCUCCUGACACCAGCCAUGGAAUUCUCGGGUGCCAA: 0.341
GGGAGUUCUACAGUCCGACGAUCAAUCCAGUUGGAACAUACAUGCUUUUUUGAAGAAAUUACUUGAAUAAAAUAGUUUUCACAUUUUCAAUAUGCAAGUUUUGAAAAUGAGGAUUUGCCUGGACUUUUUUAUAUGGAAUUCUCGGGUGCCAA: 1.48
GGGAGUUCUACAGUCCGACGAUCAUCAAAAGUGAAUAAUGUAUGAAUGAGAGCUGUAAGAAGGAUUUUUAUUUUGUUAUAAUUUAGUUACCAUUUUCAGUGUUAUUUCAAAGGUUCUUUGAAGAAUUUUGGGGUGGAAUUCUCGGGUGCCAA: 0.693
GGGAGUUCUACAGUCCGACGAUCAGGGAGGCCCCUGGGUAUUGUCCUCCUACAAGGAAGAUCCUCUUUGUUUGUUCAAAGGACCAGUUUUCCUAGGCCAAAGAAGUCUCUUCCCCAUGUUAGUCCUAUGCCUUUGGAAUUCUCGGGUGCCAA: 0.441
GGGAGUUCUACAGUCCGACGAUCUCAUGAAAAUGGAGCCAGAGAGCCUGGACAUCAGGGACUUUUGCCCACAGCACAUGACACCGACAGCUGCCCAGCCUGUUCACAUGCUGGGGACCAGCACAGCACCUGAAUGGAAUUCUCGGGUGCCAA: 0.517
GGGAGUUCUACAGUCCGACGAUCCCAAGUGCCUUUGCUAUGUUUUUAUAUCCUGGACUGGAGGUUUAUUUUUAAUAUAUAUUAUCUAAGGAAAGAUCUGUGUGUGUGAGGGCGUUGGGCAGUGCGCCCCAUGUUGGAAUUCUCGGGUGCCAA: 1.36

Block 4
Target: Ras GTPase-activating protein-binding protein 1, RRM domain (G3BP1, Homo sapiens, UniProt Q13283)
Sequence of UniProt Q13283 (whole entry, looked up): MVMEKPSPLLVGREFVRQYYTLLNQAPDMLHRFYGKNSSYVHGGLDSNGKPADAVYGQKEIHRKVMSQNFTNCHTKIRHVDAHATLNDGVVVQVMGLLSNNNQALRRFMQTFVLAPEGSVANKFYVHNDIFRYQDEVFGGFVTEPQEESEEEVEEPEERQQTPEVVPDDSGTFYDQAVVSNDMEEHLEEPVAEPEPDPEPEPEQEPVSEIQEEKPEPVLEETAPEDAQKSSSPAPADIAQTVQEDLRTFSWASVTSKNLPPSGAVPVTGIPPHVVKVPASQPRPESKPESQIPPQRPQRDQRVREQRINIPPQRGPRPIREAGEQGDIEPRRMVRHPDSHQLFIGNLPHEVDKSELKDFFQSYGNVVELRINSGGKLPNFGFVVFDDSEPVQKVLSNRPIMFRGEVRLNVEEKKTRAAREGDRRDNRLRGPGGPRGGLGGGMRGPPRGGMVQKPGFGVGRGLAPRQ
Technique: RNA Bind-n-Seq
Form: RNA
Matrix: in vitro
Tested at: 1 µM
Setting: whole 134-nt RNA, ends assumed
Added: 150 mM KCl
Relative to: input library
Direction: higher = stronger binding
Quantity: log2 enrichment
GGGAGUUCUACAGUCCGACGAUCCUCAAGUCCUGUGCUACACAUCGUAUGUACCGAAUCGGAAAGGUUUUUGGAGGAAAGUAUUAUGUUACGCCGUUCGGAUCUGCACUUCCAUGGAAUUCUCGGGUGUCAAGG: -0.173
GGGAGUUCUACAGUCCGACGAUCCUGUGCUACACAUCGUAUGUACCGAAUCGGGAAAAAAAGGGAAAAAAAGGGAAAAAAAGGGGAAAGUAUUAUGUUACGCCGUUCGGAUCUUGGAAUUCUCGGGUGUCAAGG: 0.208
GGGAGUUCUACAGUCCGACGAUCUAACUUUAGAGGAGGAUCUGAUGGAUAUGGCAGUGGACGUAGAUUUGGGGAUGGCUAUAAUGGGUAUGGAGGAGGACCUGGAGGUGGCAAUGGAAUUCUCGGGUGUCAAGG: -0.325
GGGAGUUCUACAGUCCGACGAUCCAAGUCCUGUGCUACACAUCGUAUGUACCGAAUCGGAAAAGGGGAAAAGGAAAAGGAAAGUAUUAUGUUACGCCGUUCGGAUCUGCACUUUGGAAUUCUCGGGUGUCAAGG: -0.165
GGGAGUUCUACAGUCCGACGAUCCUCAAGUCCUGUGCUACACAUCGUAUGUACCGAAUCGGUUGGGUUGGGGUUGGGAAAGUAUUAUGUUACGCCGUUCGGAUCUGCACUUCCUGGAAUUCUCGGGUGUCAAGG: 0.137
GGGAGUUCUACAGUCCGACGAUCAGUCCUGUGCUACACAUCGUAUGUACCGAAUCGGGUUUUUUUGGGAGGGUUUUUGGGAAAGUAUUAUGUUACGCCGUUCGGAUCUGCACUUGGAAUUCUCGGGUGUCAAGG: 0.286
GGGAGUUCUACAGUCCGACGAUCUCAAGUCCUGUGCUACACAUCGUAUGUACCGAAUCGGAAAGGUUUGGAAAAAGGAAAGUAUUAUGUUACGCCGUUCGGAUCUGCACUUCCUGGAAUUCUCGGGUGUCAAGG: -0.136
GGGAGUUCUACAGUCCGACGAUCCCUCAAGUCCUGUGCUACACAUCGUAUGUACCGAAUCGGAGGGGAGGGAGGGAAAGUAUUAUGUUACGCCGUUCGGAUCUGCACUUCCAGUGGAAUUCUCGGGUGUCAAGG: 0.352
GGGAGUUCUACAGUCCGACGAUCAGUCCUGUGCUACACAUCGUAUGUACCGAAUCGGGAAAAGGGGAAAAGGAAAAGGGGAAAGUAUUAUGUUACGCCGUUCGGAUCUGCACUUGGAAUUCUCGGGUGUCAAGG: 0.232
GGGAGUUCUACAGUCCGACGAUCCUGUGCUACACAUCGUAUGUACCGAAUCGGGGAAAAAAAGGGGUUUUUGGGGAAAAAGGGGAAAGUAUUAUGUUACGCCGUUCGGAUCUGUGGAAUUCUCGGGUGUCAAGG: 0.933

Repeated from above (block 1):
CCTTCTTA: 0.112
ATGATCAG: -0.0112
CTCCGTCA: 0.0645
TCTATAGA: -0.154
AATAGATC: -0.0325
